Measured values gathered from unrelated publications.
Every numbered part comes from another study and shows a few of its results, in no order. Several values in a cell are separate wells, animals, samples, runs or records.
Chain of UniProt P28482 (whole entry, looked up): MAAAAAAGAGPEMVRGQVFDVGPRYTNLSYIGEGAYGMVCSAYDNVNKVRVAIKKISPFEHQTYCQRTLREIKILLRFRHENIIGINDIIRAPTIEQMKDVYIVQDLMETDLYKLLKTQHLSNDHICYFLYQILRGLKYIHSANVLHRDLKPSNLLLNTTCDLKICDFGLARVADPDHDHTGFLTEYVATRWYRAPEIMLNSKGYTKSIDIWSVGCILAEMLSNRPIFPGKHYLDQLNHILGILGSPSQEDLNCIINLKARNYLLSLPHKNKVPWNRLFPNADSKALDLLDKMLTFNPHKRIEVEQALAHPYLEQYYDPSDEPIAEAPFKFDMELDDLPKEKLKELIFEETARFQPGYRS
Chain of UniProt P49840 (whole entry, looked up): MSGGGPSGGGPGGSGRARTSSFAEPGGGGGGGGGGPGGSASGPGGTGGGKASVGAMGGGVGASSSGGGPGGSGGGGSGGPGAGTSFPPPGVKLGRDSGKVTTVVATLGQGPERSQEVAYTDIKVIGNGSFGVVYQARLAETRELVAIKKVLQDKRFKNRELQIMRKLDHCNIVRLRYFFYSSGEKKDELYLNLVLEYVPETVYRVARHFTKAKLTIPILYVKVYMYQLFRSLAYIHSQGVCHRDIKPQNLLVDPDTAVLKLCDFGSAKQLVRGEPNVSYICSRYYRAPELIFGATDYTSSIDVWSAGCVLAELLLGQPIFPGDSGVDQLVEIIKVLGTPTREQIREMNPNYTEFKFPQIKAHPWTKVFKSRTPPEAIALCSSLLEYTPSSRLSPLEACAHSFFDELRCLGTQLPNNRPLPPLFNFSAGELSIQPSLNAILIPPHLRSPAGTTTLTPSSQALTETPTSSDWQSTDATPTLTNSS
Chain of UniProt P49841 (whole entry, looked up): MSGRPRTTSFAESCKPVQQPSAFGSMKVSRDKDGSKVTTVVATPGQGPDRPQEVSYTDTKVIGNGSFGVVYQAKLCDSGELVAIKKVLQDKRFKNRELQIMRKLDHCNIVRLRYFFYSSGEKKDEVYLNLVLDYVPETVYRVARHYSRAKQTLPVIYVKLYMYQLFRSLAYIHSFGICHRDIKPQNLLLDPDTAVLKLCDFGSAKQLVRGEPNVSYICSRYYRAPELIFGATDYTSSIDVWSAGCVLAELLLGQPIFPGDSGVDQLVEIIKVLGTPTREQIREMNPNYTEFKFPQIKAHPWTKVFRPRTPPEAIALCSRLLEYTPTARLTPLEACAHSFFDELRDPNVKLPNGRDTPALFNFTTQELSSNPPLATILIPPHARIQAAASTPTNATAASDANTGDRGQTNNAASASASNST

Block 1
Target: Calcium/calmodulin-dependent protein kinase type II subunit alpha (CAMK2A, Homo sapiens, UniProt Q9UQM7)
Chain of UniProt Q9UQM7 (whole entry, looked up): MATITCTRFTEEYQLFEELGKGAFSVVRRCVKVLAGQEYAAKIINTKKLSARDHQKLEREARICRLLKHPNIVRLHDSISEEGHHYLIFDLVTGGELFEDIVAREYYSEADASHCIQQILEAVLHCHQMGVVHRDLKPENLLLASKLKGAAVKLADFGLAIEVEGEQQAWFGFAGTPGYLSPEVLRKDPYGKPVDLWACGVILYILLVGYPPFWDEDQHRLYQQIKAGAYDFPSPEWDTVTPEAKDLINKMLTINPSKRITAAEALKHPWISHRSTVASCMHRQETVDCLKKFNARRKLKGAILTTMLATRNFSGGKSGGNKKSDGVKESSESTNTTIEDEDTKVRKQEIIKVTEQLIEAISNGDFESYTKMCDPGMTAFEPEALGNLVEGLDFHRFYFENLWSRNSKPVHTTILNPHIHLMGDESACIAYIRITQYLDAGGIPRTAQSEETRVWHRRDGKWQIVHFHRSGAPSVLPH
Read-out: enzyme activity
Action: inhibitor
Concentration: 10 µM
Endpoint: inhibition
Structure (SMILES) = COC(=O)/C=C/C(=O)OCCN1C(=O)CCC1=O; result = -8%
Structure (SMILES) = CC1(C)C(/C=C/C=C/C=C/C=C2\N(CCCCS(=O)(=O)O)c3ccc4ccccc4c3C2(C)C)=[N+](CCCCS(=O)(=O)[O-])c2ccc3ccccc3c21; result = -4%
Structure (SMILES) = CCCCCCCC(=O)OCC(COC(=O)CCCCCCC)OC(=O)CCCCCCC; result = 4%
Structure (SMILES) = C=C(NC(=O)c1csc(-c2nc3c(cc2O)-c2nc(cs2)C(=O)N[C@@H]([C@@H](C)O)C(=O)N/C(=C/C)c2nc(cs2)C(=O)N[C@H]2C[C@H](O)C(=O)OCc4cccc5[nH]c(c(C)c45)C(=O)SC[C@H](NC(=O)c4csc2n4)c2nc-3cs2)n1)C(N)=O; result = -65%
Structure (SMILES) = COc1cc(O)c(C(=O)/C=C/c2ccccc2)c(OC)c1; result = 0%
Structure (SMILES) = CCOC(=O)/C=C/c1ccc(O)c(O)c1; result = -40%
Structure (SMILES) = COc1c(O)c2c(=O)cc(OC)c3c4c(OC)cc(=O)c5c(O)c(OC)c6c(c(c1C[C@@](C)(O)[C@H]6C(C)=O)c23)c54; result = 52%
Structure (SMILES) = C[N+](C)(C)C[C@H](O)CC(=O)O; result = 65%
Structure (SMILES) = O=c1c(O[C@@H]2O[C@H](CO)[C@@H](O)[C@H](O)[C@H]2O[C@@H]2O[C@H](CO)[C@@H](O)[C@H](O)[C@H]2O)c(-c2ccc(O)c(O)c2)oc2cc(O)cc(O)c12; result = -41%
Structure (SMILES) = Cc1nnc(SCC2=C(C(=O)O)N3C(=O)[C@@H](NC(=O)Cn4cc(Cl)c(=O)c(Cl)c4)[C@H]3SC2)s1; result = 2%

Block 2
Compound: C[C@@H](NC(=O)Nc1cc2[nH]ncc2c(CO)n1)c1ccccc1
Endpoint: EC50
SGK1: Serine/threonine-protein kinase Sgk1 (SGK1, Homo sapiens, UniProt O00141)
Chain of UniProt O00141 (whole entry, looked up): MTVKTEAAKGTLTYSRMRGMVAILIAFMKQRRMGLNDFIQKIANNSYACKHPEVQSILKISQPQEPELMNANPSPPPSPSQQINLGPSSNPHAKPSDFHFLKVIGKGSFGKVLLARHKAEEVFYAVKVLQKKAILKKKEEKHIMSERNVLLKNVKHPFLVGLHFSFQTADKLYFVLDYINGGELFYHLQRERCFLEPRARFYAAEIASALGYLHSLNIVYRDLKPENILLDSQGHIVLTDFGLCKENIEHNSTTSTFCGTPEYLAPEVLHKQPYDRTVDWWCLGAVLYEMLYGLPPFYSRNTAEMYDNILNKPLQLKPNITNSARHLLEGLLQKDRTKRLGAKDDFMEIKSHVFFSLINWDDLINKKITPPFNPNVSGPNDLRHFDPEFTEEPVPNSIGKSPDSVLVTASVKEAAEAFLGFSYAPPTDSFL
target = SGK1; read-out = target engagement; technique = NanoBRET; sample = live cells; result = > 50 µM
target = MAPK1 (Homo sapiens, UniProt P28482); read-out = target engagement; technique = NanoBRET; sample = live cells; result = 0.122 µM and 0.117 µM and 0.048 µM
target = GSK3A (Homo sapiens, UniProt P49840); read-out = target engagement; technique = NanoBRET; sample = live cells; result = 15.2 µM and 11.4 µM and 11.6 µM
target = SGK1; read-out = target engagement in cells; technique = BRET; result = > 50 µM
target = GSK3B (Homo sapiens, UniProt P49841); read-out = target engagement; technique = NanoBRET; sample = live cells; result = 4.71 µM and 9.28 µM and 1.44 µM

Block 3
Structure (SMILES): CC(C)n1cnc(-c2ccc(F)cc2)c1-c1ncc(C(=O)Nc2ccc(N3CCN(C)CC3)cc2)[nH]1
Technique: Phase 2a trial
Host: idiopathic pulmonary fibrosis patients
Endpoint: patients with adverse events
refers to = neutrophil count increased; dose = 30 mg once daily; setting = grade 3 maximum intensity; result = 0%
refers to = back pain; dose = 30 mg once daily; setting = grade 1 maximum intensity; result = 0%
refers to = bile acids increased; dose = 60 mg once daily; setting = grade 2 maximum intensity; result = 0%
refers to = tri-iodothyronine increased; dose = 30 mg once daily; setting = grade 4 maximum intensity; result = 0%
refers to = blood bilirubin increased; dose = 30 mg once daily; setting = grade 3 maximum intensity; result = 0%
refers to = eye disorders (SOC); dose = 30 mg once daily; setting = grade 4 maximum intensity; result = 0%
refers to = chest discomfort; dose = 30 mg once daily; setting = grade 4 maximum intensity; result = 0%
refers to = blood alkaline phosphatase increased; dose = dose not given; setting = grade 3 maximum intensity, all arms; result = 0%
refers to = respiratory tract infection; dose = 60 mg once daily; setting = grade 4 maximum intensity; result = 0%
refers to = reticulocyte count increased; dose = 60 mg once daily; setting = grade 3 maximum intensity; result = 0%
refers to = chest discomfort; dose = 60 mg once daily; setting = grade 3 maximum intensity; result = 0%
refers to = vision blurred; dose = dose not given; setting = grade 3 maximum intensity, all arms; result = 0%
refers to = eye disorders (SOC); dose = 30 mg once daily; setting = grade 5 maximum intensity; result = 0%
refers to = blood bilirubin increased; dose = 30 mg once daily; setting = grade 1 maximum intensity; result = 0%
refers to = bile acids increased; dose = dose not given; setting = grade 5 maximum intensity, all arms; result = 0%
refers to = back pain; dose = dose not given; setting = grade 3 maximum intensity, all arms; result = 0%
refers to = bile acids increased; dose = dose not given; setting = grade 2 maximum intensity, all arms; result = 0%
refers to = respiratory tract infection; dose = 30 mg once daily; setting = grade 1 maximum intensity; result = 0%
refers to = blood alkaline phosphatase increased; dose = dose not given; setting = grade 2 maximum intensity, all arms; result = 0%
refers to = neutrophil count increased; dose = 60 mg once daily; setting = grade 2 maximum intensity; result = 0%
refers to = urinary tract infection; dose = dose not given; setting = grade 1 maximum intensity, all arms; result = 0%
refers to = gamma-glutamyltransferase increased; dose = 30 mg once daily; setting = grade 1 maximum intensity; result = 0%

Block 4
Target: Tyrosine-protein kinase Yes (YES1, Homo sapiens, UniProt P07947)
Chain of UniProt P07947 (whole entry, looked up): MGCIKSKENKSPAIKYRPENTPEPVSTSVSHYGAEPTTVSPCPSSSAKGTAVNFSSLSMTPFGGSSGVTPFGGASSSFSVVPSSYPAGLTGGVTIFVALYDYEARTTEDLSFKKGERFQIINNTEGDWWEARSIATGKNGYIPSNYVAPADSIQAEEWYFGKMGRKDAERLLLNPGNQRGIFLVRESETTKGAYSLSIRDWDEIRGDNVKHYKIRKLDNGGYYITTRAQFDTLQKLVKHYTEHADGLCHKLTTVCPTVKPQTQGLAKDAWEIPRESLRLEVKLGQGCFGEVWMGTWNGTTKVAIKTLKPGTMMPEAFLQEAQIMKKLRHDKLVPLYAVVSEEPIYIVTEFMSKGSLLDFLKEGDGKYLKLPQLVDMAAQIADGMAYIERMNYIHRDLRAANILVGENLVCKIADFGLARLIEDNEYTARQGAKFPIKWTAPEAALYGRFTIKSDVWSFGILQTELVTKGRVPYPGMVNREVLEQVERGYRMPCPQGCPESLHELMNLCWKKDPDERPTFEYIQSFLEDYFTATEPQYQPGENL
Read-out: enzyme activity
Action: inhibitor
Concentration: 0.5 µM
Baseline: control
Endpoint: remaining activity
SMILES = Cc1cc(Nc2cc(N3CCN(C)CC3)nc(Sc3ccc(NC(=O)C4CC4)cc3)n2)[nH]n1; result = 33.9%
SMILES = CN1CCN(c2ccc3nc(-c4c(N)c5c(F)cccc5[nH]c4=O)[nH]c3c2)CC1; result = 6.3%
SMILES = O=C1NC(=O)c2c1c1c3ccccc3[nH]c1n1cncc21; result = 79.9%
SMILES = Cc1ccc(S(=O)(=O)/C=C/C#N)cc1; result = 94.2%
SMILES = c1ccc2c(-c3ccncc3)c[nH]c2c1; result = 97.1%
SMILES = O=C1NC(=O)c2c1c1c3ccccc3[nH]c1c1[nH]c3cc(Br)ccc3c21; result = 88.4%
SMILES = CN(C)S(=O)(=O)c1ccc2c(c1)/C(=C/c1cc3c([nH]1)CCCC3)C(=O)N2; result = 13.5%
SMILES = COc1ccc2c(c1)c(C1=C(c3c[nH]c4ccccc34)C(=O)NC1=O)cn2CCCN(C)C; result = 90.4%
SMILES = COc1cccc(-c2cc(=O)c3ccccc3o2)c1N; result = 93.5%
SMILES = COc1ccc(COc2ccc(Cc3cnc(N)nc3N)cc2OC)cc1; result = 94.8%
SMILES = N#Cc1cnc2cnc(NCc3cccnc3)cc2c1Nc1ccc(F)c(Cl)c1; result = 93.6%
SMILES = CCCNC(=O)Nc1ccc(Oc2ncnc3cc(OC)c(OC)cc23)cc1Cl; result = 82.1%
SMILES = O=C1Nc2ccccc2/C1=C\c1c(Cl)[nH]c2ccccc12; result = 93.9%
SMILES = O=Nc1c(-c2c(O)[nH]c3cc(Br)ccc23)[nH]c2ccccc12; result = 15.8%
SMILES = O=C1Nc2ccc(Br)cc2/C1=C/c1cc2c([nH]1)CCCC2; result = 67.2%
SMILES = O=C(c1cc2cc(O)ccc2[nH]1)c1cc2cc(O)ccc2[nH]1; result = 18.8%
SMILES = O=c1cc(N2CCOCC2)oc2c(-c3ccccc3)cccc12; result = 101%
SMILES = CCCCc1c(-c2ccc(OC)cc2)[nH]c2nccnc12; result = 45.7%
SMILES = O=C1Cc2c([nH]c3ccc(Br)cc23)-c2ccccc2N1; result = 59.1%
SMILES = Oc1cccc(-c2nc(N3CCOCC3)c3oc4ncccc4c3n2)c1; result = 94.3%
SMILES = c1ccc(-c2n[nH]c3c2oc2ccccc23)cc1; result = 86.1%

Repeated from above (block 4):
SMILES = CN(C)S(=O)(=O)c1ccc2c(c1)/C(=C/c1cc3c([nH]1)CCCC3)C(=O)N2; result = 13.5%
SMILES = COc1ccc2c(c1)c(C1=C(c3c[nH]c4ccccc34)C(=O)NC1=O)cn2CCCN(C)C; result = 90.4%
SMILES = COc1cccc(-c2cc(=O)c3ccccc3o2)c1N; result = 93.5%
